Assay results from different studies.
Each numbered part is a random draw from the data of one study; scales do not carry over between parts.
Sequence of UniProt Q13554 (whole entry, looked up): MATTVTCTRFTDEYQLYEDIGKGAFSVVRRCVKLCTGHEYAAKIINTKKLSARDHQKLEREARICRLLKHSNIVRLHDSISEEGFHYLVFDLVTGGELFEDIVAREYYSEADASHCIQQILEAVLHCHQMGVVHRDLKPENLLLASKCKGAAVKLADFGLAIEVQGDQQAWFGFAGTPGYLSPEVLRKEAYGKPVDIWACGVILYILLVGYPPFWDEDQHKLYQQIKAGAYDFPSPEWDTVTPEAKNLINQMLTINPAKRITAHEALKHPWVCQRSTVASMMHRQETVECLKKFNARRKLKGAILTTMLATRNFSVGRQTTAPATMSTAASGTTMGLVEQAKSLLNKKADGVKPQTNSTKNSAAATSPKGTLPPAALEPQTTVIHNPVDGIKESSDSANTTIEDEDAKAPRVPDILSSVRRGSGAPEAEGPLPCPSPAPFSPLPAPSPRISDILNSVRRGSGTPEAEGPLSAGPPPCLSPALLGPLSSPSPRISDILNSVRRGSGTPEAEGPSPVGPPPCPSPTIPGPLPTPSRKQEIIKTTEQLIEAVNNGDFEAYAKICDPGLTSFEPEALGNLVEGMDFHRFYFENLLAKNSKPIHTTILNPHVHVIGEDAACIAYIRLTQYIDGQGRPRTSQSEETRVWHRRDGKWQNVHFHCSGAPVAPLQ
Sequence of UniProt Q9UK32 (whole entry, looked up): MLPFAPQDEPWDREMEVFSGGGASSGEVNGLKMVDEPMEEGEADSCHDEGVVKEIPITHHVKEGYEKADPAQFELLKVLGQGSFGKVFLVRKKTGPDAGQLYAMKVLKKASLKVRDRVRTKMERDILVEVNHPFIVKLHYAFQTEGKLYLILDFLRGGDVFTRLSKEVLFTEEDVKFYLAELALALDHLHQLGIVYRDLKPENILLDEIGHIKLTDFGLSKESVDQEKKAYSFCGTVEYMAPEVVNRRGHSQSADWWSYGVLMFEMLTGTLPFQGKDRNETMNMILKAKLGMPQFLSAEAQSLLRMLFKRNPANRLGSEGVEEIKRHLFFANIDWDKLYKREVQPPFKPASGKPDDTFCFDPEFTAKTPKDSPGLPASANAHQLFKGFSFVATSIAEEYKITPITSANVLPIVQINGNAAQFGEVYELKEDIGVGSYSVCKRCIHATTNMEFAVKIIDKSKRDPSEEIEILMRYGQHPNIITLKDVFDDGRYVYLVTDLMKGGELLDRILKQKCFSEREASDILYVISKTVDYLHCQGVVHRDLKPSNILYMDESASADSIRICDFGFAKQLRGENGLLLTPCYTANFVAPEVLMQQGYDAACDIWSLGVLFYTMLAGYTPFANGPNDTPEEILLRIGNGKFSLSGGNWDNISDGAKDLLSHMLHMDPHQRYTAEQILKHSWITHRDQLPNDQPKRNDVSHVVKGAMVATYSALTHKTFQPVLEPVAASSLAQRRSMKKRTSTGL
Sequence of UniProt Q9C098 (whole entry, looked up): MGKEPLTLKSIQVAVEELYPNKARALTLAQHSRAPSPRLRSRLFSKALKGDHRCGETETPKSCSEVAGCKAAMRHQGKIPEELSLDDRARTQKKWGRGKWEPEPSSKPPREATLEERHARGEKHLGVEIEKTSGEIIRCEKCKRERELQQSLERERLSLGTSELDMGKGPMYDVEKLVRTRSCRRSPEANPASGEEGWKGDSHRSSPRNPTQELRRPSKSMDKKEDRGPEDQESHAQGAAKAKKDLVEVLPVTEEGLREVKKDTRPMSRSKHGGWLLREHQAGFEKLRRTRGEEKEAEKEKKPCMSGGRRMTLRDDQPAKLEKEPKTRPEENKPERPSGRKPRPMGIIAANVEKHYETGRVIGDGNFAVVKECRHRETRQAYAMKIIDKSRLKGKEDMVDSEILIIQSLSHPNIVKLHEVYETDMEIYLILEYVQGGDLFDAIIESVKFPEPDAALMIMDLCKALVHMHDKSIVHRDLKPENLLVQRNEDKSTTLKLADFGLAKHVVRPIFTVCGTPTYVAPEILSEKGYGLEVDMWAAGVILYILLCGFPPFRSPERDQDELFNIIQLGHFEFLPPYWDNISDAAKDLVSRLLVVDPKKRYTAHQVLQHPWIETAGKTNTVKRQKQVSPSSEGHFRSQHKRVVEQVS
Sequence of UniProt Q96PF2 (whole entry, looked up): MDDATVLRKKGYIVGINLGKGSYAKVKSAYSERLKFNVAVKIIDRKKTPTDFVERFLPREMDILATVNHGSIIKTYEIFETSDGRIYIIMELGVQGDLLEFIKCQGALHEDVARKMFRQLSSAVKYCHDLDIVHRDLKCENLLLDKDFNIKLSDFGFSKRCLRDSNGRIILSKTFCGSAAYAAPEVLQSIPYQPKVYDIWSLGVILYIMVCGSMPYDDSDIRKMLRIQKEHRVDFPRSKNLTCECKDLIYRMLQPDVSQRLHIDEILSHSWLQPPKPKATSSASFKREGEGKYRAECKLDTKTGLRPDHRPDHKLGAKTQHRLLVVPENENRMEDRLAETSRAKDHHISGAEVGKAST
Sequence of UniProt Q8NE63 (whole entry, looked up): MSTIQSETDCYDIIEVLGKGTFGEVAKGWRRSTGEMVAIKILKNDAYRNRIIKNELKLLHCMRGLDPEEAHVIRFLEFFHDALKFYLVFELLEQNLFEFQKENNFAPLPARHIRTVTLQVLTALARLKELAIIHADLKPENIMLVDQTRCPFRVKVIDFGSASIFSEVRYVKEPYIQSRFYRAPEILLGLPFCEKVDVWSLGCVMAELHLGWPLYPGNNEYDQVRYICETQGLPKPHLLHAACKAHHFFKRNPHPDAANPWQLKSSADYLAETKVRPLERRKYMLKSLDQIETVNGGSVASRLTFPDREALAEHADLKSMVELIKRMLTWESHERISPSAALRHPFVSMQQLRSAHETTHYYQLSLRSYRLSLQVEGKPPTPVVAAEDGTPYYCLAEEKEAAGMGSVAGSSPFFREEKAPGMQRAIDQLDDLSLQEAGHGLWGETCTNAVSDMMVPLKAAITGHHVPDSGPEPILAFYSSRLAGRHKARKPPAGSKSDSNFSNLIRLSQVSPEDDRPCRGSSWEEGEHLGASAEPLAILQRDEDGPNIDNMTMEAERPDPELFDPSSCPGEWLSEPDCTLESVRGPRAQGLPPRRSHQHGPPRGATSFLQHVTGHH
Sequence of UniProt O75716 (whole entry, looked up): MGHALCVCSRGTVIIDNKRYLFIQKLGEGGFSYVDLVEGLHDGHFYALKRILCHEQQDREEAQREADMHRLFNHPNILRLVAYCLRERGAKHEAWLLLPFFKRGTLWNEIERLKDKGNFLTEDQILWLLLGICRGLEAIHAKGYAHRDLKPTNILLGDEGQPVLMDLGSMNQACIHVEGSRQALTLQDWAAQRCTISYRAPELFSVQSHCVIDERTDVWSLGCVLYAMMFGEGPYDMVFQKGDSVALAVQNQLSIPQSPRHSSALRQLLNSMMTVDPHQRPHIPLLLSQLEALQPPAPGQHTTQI
Sequence of UniProt Q13043 (whole entry, looked up): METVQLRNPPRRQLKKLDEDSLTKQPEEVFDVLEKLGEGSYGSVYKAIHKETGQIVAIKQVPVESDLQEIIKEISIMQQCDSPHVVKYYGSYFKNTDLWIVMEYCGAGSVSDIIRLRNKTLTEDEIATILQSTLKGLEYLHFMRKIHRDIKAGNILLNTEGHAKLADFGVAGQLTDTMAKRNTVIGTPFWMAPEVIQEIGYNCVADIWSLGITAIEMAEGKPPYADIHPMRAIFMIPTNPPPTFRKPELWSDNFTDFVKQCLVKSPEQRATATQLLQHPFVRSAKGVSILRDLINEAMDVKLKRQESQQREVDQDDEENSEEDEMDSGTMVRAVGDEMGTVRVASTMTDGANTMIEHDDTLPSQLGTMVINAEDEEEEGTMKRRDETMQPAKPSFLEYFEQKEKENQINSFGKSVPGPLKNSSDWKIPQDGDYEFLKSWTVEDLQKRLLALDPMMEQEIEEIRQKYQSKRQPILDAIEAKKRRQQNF

Series 1
SMILES: O=C(O)c1ccc2c3c1cccc3c(=O)n1c3ccccc3nc21
Read-out: enzyme activity
Mode: inhibitor
Concentration: 0.5 µM
Reference: control
Endpoint: remaining activity
DYRK3 (Homo sapiens, UniProt O43781): 92.3%
SRMS (Homo sapiens, UniProt Q9H3Y6): 106%
EPHA4 (Homo sapiens, UniProt P54764): 103%
RPS6KA6 (Homo sapiens, UniProt Q9UK32): 101%
STK16 (Homo sapiens, UniProt O75716): 106%
HIPK4 (Homo sapiens, UniProt Q8NE63): 86.9%
EPHB1 (Homo sapiens, UniProt P54762): 97.5%
CAMK2B (Homo sapiens, UniProt Q13554): 92.6%
TSSK2 (Homo sapiens, UniProt Q96PF2): 106%
MAP4K4 (Homo sapiens, UniProt O95819): 43.4%
MAPKAPK3 (Homo sapiens, UniProt Q16644): 103%
ABL1 (Homo sapiens, UniProt P00519): 99.3%
RPS6KA5 (Homo sapiens, UniProt O75582): 104%

Series 2
Target: Calcium/calmodulin-dependent protein kinase type II subunit alpha (CAMK2A, Homo sapiens, UniProt Q9UQM7)
Sequence of UniProt Q9UQM7 (whole entry, looked up): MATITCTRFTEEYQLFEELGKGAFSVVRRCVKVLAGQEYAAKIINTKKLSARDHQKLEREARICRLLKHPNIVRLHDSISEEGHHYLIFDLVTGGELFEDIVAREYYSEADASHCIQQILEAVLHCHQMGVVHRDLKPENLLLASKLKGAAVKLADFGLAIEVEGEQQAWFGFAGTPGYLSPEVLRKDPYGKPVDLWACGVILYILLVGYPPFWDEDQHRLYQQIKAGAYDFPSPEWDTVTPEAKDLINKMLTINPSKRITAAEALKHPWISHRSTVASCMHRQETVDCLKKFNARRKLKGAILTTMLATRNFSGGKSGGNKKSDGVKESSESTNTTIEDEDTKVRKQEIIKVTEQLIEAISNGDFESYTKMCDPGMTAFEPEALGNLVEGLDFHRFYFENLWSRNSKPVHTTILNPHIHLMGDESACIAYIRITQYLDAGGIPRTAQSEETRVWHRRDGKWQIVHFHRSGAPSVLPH
Read-out: enzyme activity
Mode: inhibitor
Concentration: 10 µM
Endpoint: inhibition
O=C(O)CCCCCCCCC(=O)O: -2%
NC(=O)c1[nH]cnc1N: -20%
NC(=O)NC1NC(=O)NC1=O (stereo not drawn): 1%
Cc1ccc(Nc2nccc(N(C)c3ccc4c(C)n(C)nc4c3)n2)cc1S(N)(=O)=O: 0%
C[C@H](O)C(=O)Nc1c(I)c(C(=O)NC(CO)CO)c(I)c(C(=O)NC(CO)CO)c1I: -15%

Series 3
Structure (SMILES): CC1=C(C#N)C(c2ccc3c(c2)c(NC(=O)c2ccccc2C)nn3C)C(C#N)=C(C)N1
Read-out: cell-free assay
Method: competition with immobilised ligand
Concentration: 1 µM
Endpoint: remaining binding
FGFR2 (Homo sapiens, UniProt P21802): 97%
MAP2K7 (Homo sapiens, UniProt O14733): 65%
Tyrosine-protein kinase ABL1, phosphorylated (ABL1, Homo sapiens, UniProt P00519, Q252H): 73%
STK4 (Homo sapiens, UniProt Q13043): 80%
DCLK3 (Homo sapiens, UniProt Q9C098): 89%

Series 4
Target: Beta-1 adrenergic receptor (ADRB1, Homo sapiens, UniProt P08588)
Sequence of UniProt P08588 (whole entry, looked up): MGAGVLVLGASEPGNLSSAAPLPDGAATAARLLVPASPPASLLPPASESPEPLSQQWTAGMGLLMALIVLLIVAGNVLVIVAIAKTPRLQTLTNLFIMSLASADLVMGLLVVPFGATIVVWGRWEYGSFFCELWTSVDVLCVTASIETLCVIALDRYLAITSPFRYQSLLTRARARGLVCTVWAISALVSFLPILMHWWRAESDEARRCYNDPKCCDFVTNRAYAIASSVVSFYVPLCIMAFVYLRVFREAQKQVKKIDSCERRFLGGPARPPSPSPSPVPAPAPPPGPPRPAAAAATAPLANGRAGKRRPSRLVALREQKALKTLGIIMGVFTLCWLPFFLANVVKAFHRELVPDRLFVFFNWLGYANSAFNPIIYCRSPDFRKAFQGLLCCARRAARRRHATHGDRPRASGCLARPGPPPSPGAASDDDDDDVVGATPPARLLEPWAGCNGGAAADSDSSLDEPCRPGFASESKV
Mode: agonist
Endpoint: EC50
O=c1cc(-c2ccccn2)oc2c(NC3CCOCC3)nccc12: ≥ 100 µM
CCCCCCCCN[C@H](C)[C@@H](O)c1ccc(SC(C)C)cc1: ≥ 100 µM
N#Cc1ccc(C(O)CN2CC=C(C3=NNC(=O)CC3)CC2)cc1 (stereo not drawn): ≥ 100 µM
c1ccc(-c2n[nH]cc2-c2ccnc3ccccc23)nc1: ≥ 100 µM
COc1ccccc1C(=O)Nc1ccc2ccccc2n1: ≥ 100 µM
COC(=O)C1CCN(CC(O)COc2cccc(CN3CC=C(C)CC3)c2)CC1 (stereo not drawn): ≥ 100 µM
COc1ccccc1N1CCN(CC[C@H]2CN(C(=O)NC(C)C)CC[C@H]2CC(=O)O)CC1: 28.2 µM
